# Published values from different studies.
# A part holds a random share of what one study measured. pIC50: −log10 of the molar value.

# Set 1
# Target: PABPC1L2, full length, GST fusion (mouse, UniProt A0ABA7IW68)
# Method: RNAcompete
# Molecule type: RNA
# Medium: in vitro
# Tested at: 20 nM
# Setting: 7-mer, probes averaged, single round
# Relative to: mean of 7-mers
# Direction: higher = stronger binding
# Target sequence (chain): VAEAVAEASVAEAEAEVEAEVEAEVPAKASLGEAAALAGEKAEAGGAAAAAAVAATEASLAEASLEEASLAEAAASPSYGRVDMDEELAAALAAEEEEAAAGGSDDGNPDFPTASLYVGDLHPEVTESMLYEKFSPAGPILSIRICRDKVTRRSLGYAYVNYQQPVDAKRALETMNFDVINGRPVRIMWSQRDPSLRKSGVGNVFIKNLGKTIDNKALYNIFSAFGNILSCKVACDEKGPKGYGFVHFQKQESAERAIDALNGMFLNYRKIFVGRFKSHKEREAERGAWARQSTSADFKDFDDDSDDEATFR
Oligonucleotide,7-mer Z-score
CCUGGUC,-0.374
GCAGUAC,-0.0754
AUAGAGA,-0.0428
GACCUCU,-0.278
UUGAAGU,-0.186
AGAUGUU,-0.353
AACGCUA,-0.108
UUCAUAG,-0.266

# Set 2
# Target: Replicase polyprotein 1ab, main protease (rep, Severe acute respiratory syndrome coronavirus 2, UniProt P0DTD1)
# Read-out: enzyme activity
# Action: inhibitor
SMILES,pIC50
COc1cc(-c2ccc(/N=N/c3ccc4c(S(=O)(=O)O)cc(S(=O)(=O)O)c(N)c4c3O)c(OC)c2)ccc1/N=N/c1ccc2c(S(=O)(=O)O)cc(S(=O)(=O)O)c(N)c2c1O,5.48
c1ccc2sc(SSc3nc4ccccc4s3)nc2c1,6.27
CCCCCCCCCCCCCCCCCC[S+](CCC)c1ccccc1C(=O)OCC (centres unmarked),4.92

# Set 3
# Cell line: HEK-293T
# Read-out: pseudovirus infection
# Method: FDA-approved drug library screen
# Organism: VSV pseudotyped with SARS-CoV-2 spike
# Tested at: 10 µM
# Time: 16 h
# Relative to: vehicle-treated
Structure (SMILES),GFP-positive cells [%]
Cc1ccc(C)c(OCCCC(C)(C)C(=O)O)c1,107
CC(=O)N(CC(O)CO)c1c(I)c(C(=O)NCC(O)CO)c(I)c(C(=O)NCC(O)CO)c1I (centres unmarked),76
CCC(C)n1ncn(-c2ccc(N3CCN(c4ccc(OCC5COC(Cn6cncn6)(c6ccc(Cl)cc6Cl)O5)cc4)CC3)cc2)c1=O (centres unmarked),86.2
CC(C)Cn1cnc2c(N)nc3ccccc3c21,80

# Set 4
# Target: Transcription factor SOX-2, HMG box (Sox2, Mus musculus, UniProt P48432, residues 41-119)
# Chain of UniProt P48432 (41-119, looked up): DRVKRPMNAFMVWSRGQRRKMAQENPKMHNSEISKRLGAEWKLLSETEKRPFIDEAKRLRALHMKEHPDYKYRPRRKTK
# Method: Spec-seq
# Molecule type: double-stranded DNA, one strand shown
# Medium: in vitro
# Tested at: not given
# Setting: whole probe, mean of replicates
# Relative to: not given
# Direction: lower = stronger binding
Oligonucleotide,relative binding energy [ln ratio]
GAGTCGTCTCGTCAGCACCATCGGGCCGTAGAGCACTCAGGTC,0.475
GAGTCGTCTCGTCAGCACCATTCAGCCGTAGAGCACTCAGGTC,-1.5
GAGTCGTCTCGTCAGCACCATTCCGCCGTAGAGCACTCAGGTC,0.498

# Set 5
# Target: Sal-like protein 4, full length isoform B (SALL4, Homo sapiens, UniProt Q9UJQ4-2, residues 1-616)
# Method: universal PBM
# Molecule type: double-stranded DNA, one strand shown
# Medium: in vitro
# Tested at: not given
# Setting: 8-mer, flanks averaged, mean of replicates
# Direction: higher = stronger binding
# Target sequence (chain): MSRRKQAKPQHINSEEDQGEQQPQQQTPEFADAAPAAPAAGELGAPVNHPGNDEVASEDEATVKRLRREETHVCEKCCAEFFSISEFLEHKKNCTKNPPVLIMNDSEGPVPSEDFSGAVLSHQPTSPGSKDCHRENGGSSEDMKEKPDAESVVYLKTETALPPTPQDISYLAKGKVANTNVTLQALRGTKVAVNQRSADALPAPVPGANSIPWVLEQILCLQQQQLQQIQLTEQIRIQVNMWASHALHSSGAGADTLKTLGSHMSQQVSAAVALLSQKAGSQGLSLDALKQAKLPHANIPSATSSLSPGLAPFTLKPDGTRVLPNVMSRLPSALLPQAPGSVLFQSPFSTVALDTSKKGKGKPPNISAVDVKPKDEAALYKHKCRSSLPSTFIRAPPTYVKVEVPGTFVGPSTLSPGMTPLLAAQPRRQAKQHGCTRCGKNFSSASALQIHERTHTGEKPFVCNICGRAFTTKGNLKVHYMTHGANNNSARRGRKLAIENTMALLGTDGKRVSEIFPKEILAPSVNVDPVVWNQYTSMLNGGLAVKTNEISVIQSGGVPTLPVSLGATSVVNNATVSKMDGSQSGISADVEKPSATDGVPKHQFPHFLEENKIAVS
Oligonucleotide,E-score
CACGTCTA,0.0622
TCAGGCGA,-0.238
GATGGGAC,-0.11
AACCCTCG,-0.141
CGGACGTC,-0.18
CAAATGCC,-0.172
GAACCGGC,-0.416
CATCAAAA,0.126

# Set 6
# Target: Replicase polyprotein 1ab, nsp13 helicase (rep, Severe acute respiratory syndrome coronavirus 2, UniProt P0DTD1)
# Action: inhibitor
# Tested at: 20 µM
SMILES,inhibition
FC(F)(F)c1ccc(N2CCNCC2)nc1Cl,10.8%
C=CCNc1nc(NCC=C)nc(N2CCN(C(c3ccc(F)cc3)c3ccc(F)cc3)CC2)n1,1.48%
COc1cc(N)c(Cl)cc1C(=O)NC1CCN(Cc2ccccc2)CC1,2.8%
Cc1ncc(CO)c(CN)c1O,0.56%
O=C(O)[C@H](O)[C@@H](O)[C@H](O)[C@H](O)CO,0.75%
C[n+]1ccc(C(=O)NCc2ccccc2)cc1,9.05%
O=C(O)c1cccnc1,9.02%
O=c1[nH]cnc2nc[nH]c12,4.02%
CCOC(=O)COc1ccc2c(c1)C[C@@H](NC[C@H](O)c1cccc(Cl)c1)CC2,2.12%
CC(=O)SC[C@@H](C)C(=O)N1CCC[C@H]1C(=O)N[C@@H](Cc1ccccc1)C(=O)O,1.67%
CC#CC(=O)N1CCC[C@H]1c1nc(-c2ccc(C(=O)Nc3ccccn3)cc2)c2c(N)nccn12,2.5%
CCCCCN(CCCOC)C(=O)[C@@H](CCC(=O)O)NC(=O)c1ccc(Cl)c(Cl)c1,-0.84%
Cc1ccc(CC2(O)CCN(CCOc3ccc(O)cc3)CC2)cc1,4.9%
CC(C)(C)NC(=O)[C@@H]1CN(Cc2cccnc2)CCN1C[C@@H](O)C[C@@H](Cc1ccccc1)C(=O)N[C@H]1c2ccccc2C[C@H]1O,-2.54%
CCOC(=O)[C@H](CCc1ccccc1)N[C@@H](C)C(=O)N1C(=O)N(C)C[C@H]1C(=O)O,0.53%
NC(=O)c1noc([C@H](CCCC2CCCCC2)CC(=O)NO)n1,7.1%
COc1ccc(Nc2ccn(-c3ccccc3)n2)cc1,-3.51%
CN(C)CCc1ccc(O)cc1,9.6%
NC(N)=NCCC[C@H](NC(=O)c1sccc1NS(=O)(=O)c1cccc2nsnc12)C(=O)O,2.09%
O=C1NC(=S)NC(=O)C1C(=O)Nc1ccccc1,3.72%
CCN(CC)CCOC(=O)C(c1ccccc1)C1CCCCC1 (centres unmarked),-29%
COc1cc(OC)c2c(=O)[nH]c(-c3cc(C)c(OCCO)c(C)c3)nc2c1,2.77%
COc1cc(Oc2ccnc3cc(OC)c(OC)cc23)ccc1NC(=O)NC(C)c1nccs1 (centres unmarked),7.57%
CCC[C@H](NC(=O)/C(C#N)=C/c1cccc(Br)n1)c1ccccc1,67.5%

# For quick reference, copied from above (set 6):
SMILES,inhibition
FC(F)(F)c1ccc(N2CCNCC2)nc1Cl,10.8%
O=C(O)[C@H](O)[C@@H](O)[C@H](O)[C@H](O)CO,0.75%
COc1cc(Oc2ccnc3cc(OC)c(OC)cc23)ccc1NC(=O)NC(C)c1nccs1 (centres unmarked),7.57%
O=C(O)c1cccnc1,9.02%
Cc1ccc(CC2(O)CCN(CCOc3ccc(O)cc3)CC2)cc1,4.9%
O=C1NC(=S)NC(=O)C1C(=O)Nc1ccccc1,3.72%
CCCCCN(CCCOC)C(=O)[C@@H](CCC(=O)O)NC(=O)c1ccc(Cl)c(Cl)c1,-0.84%
CCOC(=O)[C@H](CCc1ccccc1)N[C@@H](C)C(=O)N1C(=O)N(C)C[C@H]1C(=O)O,0.53%
